Experimental data gathered from unrelated publications.
A part holds a random share of what one study measured. Substitutions count along the parent as printed.

Series 1 — technique: DHFR PCA, deep sequencing; matrix: yeast; together with: (+)-ABA 710 µM; reference: wild-type fitted maximum; direction: higher = stronger binding
Target: ABI1, truncated, D143A, DHFR fusion (Arabidopsis thaliana)
Notes: methotrexate growth selection, single substitutions
Parent: PYL1, truncated, DHFR fusion (Arabidopsis thaliana); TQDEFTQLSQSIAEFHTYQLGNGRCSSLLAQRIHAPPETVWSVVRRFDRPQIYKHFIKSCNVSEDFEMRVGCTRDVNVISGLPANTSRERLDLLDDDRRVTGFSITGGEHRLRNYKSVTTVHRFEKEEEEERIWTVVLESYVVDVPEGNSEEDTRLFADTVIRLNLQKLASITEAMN; partner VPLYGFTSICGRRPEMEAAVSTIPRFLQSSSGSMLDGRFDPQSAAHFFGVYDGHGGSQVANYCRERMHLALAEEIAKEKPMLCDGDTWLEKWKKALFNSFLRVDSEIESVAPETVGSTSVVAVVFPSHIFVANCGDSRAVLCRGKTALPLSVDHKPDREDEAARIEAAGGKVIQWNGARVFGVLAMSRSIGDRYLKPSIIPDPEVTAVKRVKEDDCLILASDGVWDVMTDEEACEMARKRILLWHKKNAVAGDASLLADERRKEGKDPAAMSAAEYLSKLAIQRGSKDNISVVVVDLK
Substitution | relative binding score [%]
E89N | -10.2
N149V | 74.3
T17Q | 93.7
E130T | 103
F157H | 28.3
V118G | -2.43
S87A | 94.7
L112A | 10.8
A84V | 31.4
I12G | 64
E131Q | 110
R88F | 107
L138T | 64

Series 2 — target: UBE2J1 UBC core domain (UniProt Q9Y385); technique: yeast two-hybrid; matrix: yeast; notes: mostly zero background; reference: not given; direction: higher = stronger interaction
Sequence of UniProt Q9Y385 (whole entry, looked up): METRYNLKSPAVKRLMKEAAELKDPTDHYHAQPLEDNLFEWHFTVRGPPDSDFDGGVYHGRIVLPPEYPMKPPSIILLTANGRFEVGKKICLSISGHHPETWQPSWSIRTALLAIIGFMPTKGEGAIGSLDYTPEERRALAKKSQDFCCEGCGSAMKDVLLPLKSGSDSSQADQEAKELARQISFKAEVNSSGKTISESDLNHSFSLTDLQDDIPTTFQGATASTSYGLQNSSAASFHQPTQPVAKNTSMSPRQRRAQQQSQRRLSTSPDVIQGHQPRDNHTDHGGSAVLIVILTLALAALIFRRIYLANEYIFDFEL
B1: CBLL1 RING domain (UniProt Q75N03); chain GEKDDTPVHFCDKCGLPIKIYGRMIPCKHVFCYDCAILHEKKGDKMCPGCSDPVQRIEQCT
B2: RFPL3 RING domain (UniProt O75679); chain MAALFQEASSCPVCSDYLEKPMSLECGCTVCLKCINSLQKEPHGEDLLCCCCSMVSQRNKIRP
B3: ARIH1 RING domain (UniProt Q9Y4X5); chain NTRSSAQDMPCQICYLNYPNSYFTGLECGHKFCMQCWSEYLTTKIMEEGMGQTISCPAHGCDILVDDNTVM
B4: SHPRH RING domain (UniProt Q149N8); chain KTSGGVNPEPCPICARQLGKQWAVLTCGHCFCNECISIIIEQYSVGSHRSSIKCAICRQTTSHKEISY
Sequence | lacZ reporter activity
EDVLSKDAGECAICLEELQQGDTIARLPCLCIYHKGCIDEWFEVNRSCPEHPSD (ZNRF2 RING domain (UniProt Q8NHG8)) | 0
GSEEEEIPFRCFICRQAFQNPVVTKCRHYFCESCALEHFRATPRCYICDQPTGGIFNPA (RNF113B RING domain (UniProt Q8IZP6)) | 0
B1 (CBLL1 RING domain) | 0
B2 (RFPL3 RING domain) | 0
EIKDYKARLTCPCCNMRKKDAVLTKCFHVFCFECVKTRYDTRQRKCPKCNAAFGANDFHR (RNF20 RING domain (UniProt Q5VTR2)) | 0
B3 (ARIH1 RING domain) | 0
B4 (SHPRH RING domain) | 0

Series 3 — technique: protein-binding microarray; molecule type: double-stranded DNA, one strand shown; matrix: in vitro; concentration: 0.8 µM; notes: whole 60-bp probe, no competitor; direction: higher = stronger binding
Target: Centromere-binding protein 1, full length, N-terminal tag (CBF1, Saccharomyces cerevisiae, UniProt P17106, residues 1-351)
Sequence of UniProt P17106 (whole entry, looked up): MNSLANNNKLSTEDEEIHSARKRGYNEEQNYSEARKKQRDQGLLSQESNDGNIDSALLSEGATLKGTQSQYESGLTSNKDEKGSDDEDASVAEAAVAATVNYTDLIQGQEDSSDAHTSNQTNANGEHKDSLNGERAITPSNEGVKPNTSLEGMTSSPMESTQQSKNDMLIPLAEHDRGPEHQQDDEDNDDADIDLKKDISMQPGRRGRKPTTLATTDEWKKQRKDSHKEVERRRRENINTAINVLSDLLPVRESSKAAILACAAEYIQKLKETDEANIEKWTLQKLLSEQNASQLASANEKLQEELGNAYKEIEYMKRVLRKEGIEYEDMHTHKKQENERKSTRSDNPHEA
Oligonucleotide | fluorescence intensity
CTACCTCTATGAGATTGCGTGCCTCGAATTCTTTTCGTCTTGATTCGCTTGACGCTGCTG | 569 a.u.
CTATATAAATAATAAAACATCATGTGCATTTTTTTCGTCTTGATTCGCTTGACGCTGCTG | 1860 a.u.
CTATTTTCTTCAACCCACATGGGACTATAAGAGTTCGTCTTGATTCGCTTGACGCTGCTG | 598 a.u.
CTAAAGCCACCCTAGTTCATCAGGTTGAAGAAGTTCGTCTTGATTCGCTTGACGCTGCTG | 509 a.u.
CTAAAACAGAGCAGTCATATGATCAAAATAAAGTTCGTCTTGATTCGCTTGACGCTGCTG | 2590 a.u.
TGTACGAAGCTATATCTCGTGTTTATAGTAGTTAGGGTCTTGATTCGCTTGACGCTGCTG | 632 a.u.
CTACACACCCACACCCACACCACACCCACACCCTTCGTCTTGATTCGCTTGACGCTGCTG | 517 a.u.
CTATTTCTTTACCGTCATGCACGTGCGCCGCGATTCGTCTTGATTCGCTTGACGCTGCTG | 11700 a.u.
CTAAAATCCTTATCAGGTGTGAATAATGCTTAATTCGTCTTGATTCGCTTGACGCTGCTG | 786 a.u.
GAATATCTGCACTCAGCTGTTGTATTTCACTTGTAGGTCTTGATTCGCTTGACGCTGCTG | 526 a.u.
TGTACGAAGCTATTTTACGTGATTATAGTAGTTAGGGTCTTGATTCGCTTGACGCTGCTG | 561 a.u.
CTAGTACCTCTAGTTTTGGTGATGAAGCAAGACTTCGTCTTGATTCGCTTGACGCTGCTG | 507 a.u.
GAAGGCAAAACGACCCACGTGGCAGAGTTGGGTTAGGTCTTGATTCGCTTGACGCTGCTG | 4670 a.u.
CTACCAGTATACCGTCACATGCGGTGTAACGTGTTCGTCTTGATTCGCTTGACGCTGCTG | 2100 a.u.
GAAATTAAAGCACATGTCACGATTTAAAAAATCTAGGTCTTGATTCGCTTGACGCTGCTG | 2910 a.u.
GAACTCCTTACGCCGCATGTGATAATATACTGCTAGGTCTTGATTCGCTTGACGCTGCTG | 1310 a.u.
CTAAAGAGACAACTTTACATCAGCCTTCATATTTTCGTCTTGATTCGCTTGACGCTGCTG | 511 a.u.
CTAAGCACGTGAGTATACGTGATTAAGCACACATTCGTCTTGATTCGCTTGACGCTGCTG | 5760 a.u.
CCTAACTACTATAATAACGTGAAATAGCTTCGTACAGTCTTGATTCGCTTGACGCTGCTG | 612 a.u.

Series 4 — technique: RNA Bind-n-Seq; molecule type: RNA; matrix: in vitro; concentration: 365 nM; reference: no-protein control; direction: higher = stronger binding
Target: RNA binding protein fox-1 homolog 2, RRM domain, GST-SBP tag (RBFOX2, Homo sapiens, UniProt O43251-10, residues 100-194)
Notes: natural RNA segment, single round, ends assumed
Residues (chain): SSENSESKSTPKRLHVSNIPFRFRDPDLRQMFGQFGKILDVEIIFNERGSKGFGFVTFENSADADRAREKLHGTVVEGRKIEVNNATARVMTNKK
Oligonucleotide | RBNS enrichment (R)
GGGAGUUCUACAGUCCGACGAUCACAUAACUGAGUUUUUUAAAAGAGGAGAAAAUUUAUAUCUGGGUUAAGUGUUUAUCAUAUAUAUGGGUACUUUGUAAUAUCUAAAAACUUAGAAACGGAAAUGGAAUCCUUGGAAUUCUCGGGUGCCAA | 0.823
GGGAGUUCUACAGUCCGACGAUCAGGCUUCAGUCAGCCCCUCACUGUGGUCCAAGAAUGCCACACACCUUUCCGUAGAUAUGCCGAUGGUAAUUAUCUUUUCUUUUGGCUUAAUCCGAUUUGGUUUGGUUUUUUGGAAUUCUCGGGUGCCAA | 0.266
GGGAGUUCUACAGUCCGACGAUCGGACUAUUAAAGAAUGUUUUGGAAUAAACUGUCUUUUUCCUCAAUGAAUGGGAUGUCUAAUGUAUUUCAAAAUCACCCAAAACUUUUGGCAAAUAAAAGCAUUUAAAAAGUGGAAUUCUCGGGUGCCAA | 0.42
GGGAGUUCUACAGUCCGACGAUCUUAGGAGCUGAUAUUAUCAGUUGGAAUUAAGAGAACUCCAGAGGUUUCCAUUUCAAACAAAAUUUUAGAAAUUGGUUUGGUGUUCAGCUUCACAUUUCAUUUUUUCUUAGUGGAAUUCUCGGGUGCCAA | 0.997
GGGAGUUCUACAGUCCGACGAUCUGCCCUUUGCUGGGAAGCCUUCACUCUCCAGCUUUCCUGGGGUAGGGAAGGUCUCCCACAUUAUGCAAUAAUAAAAUAAGCAUCUGGGUCUUUGCAGCUGUCAGUUGCUCUGGAAUUCUCGGGUGCCAA | 0.274
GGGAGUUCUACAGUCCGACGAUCACUGAAAAGGUCGUGUAUAGGUUAGAGAUACAGGGAGCCCAUUUUAUAUUUGCAUACCCUUUUAUUUCCAAAACAAAAUGAGCUCUUUUCCCUUGAGACAAUAUCAUUCCUGGAAUUCUCGGGUGCCAA | 0.435
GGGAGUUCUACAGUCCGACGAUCAUCCUUCUUGGCUUCCUGGCGCCCCCUAUCGGGGGUGAGCGAAGCCCCCACUACUAAAUGGCCUCUCUCCACUACCCCGACUAUCCCUGCACAUAAACUCCGUUUUUUUUUGGAAUUCUCGGGUGCCAA | 0.506
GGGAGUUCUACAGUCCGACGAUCAUUAAAUCGUCACAGCCAAGUAAUAACCCAAGAAUGGUAUGAGUUUCAUGUGUAAUAGCUCAAAUGGAAUAAGCAUGAAUGCUGGAGUGGACCAUUAUCCUCAAAUAUUCUGGAAUUCUCGGGUGCCAA | 9.87
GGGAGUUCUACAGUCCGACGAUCAGAGGACAGUAGGGAAUCUGCCGAGGUGCCCGCACGUACUUUAGUGAGUUUAGCCAAACUAACAGCAGAAAUAAUACUGGAUUUUGAGUAAGCAGACUUAGGAGAAUAUUUGGAAUUCUCGGGUGCCAA | 0.393
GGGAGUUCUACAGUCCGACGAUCCCCAGAGGGACUAUGAUCUGAUGGCCUCUAGGUGUUGUUUUGUGCAAUAUACAGCCCCAGGUAGGGAGGGGAGAGUAUGAGGAGGGUGACUGGCAGCUUCUCCUCCAGACUGGAAUUCUCGGGUGCCAA | 1.25
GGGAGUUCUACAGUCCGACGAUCGUCAGUUGCAAUGUGCAAGACAGGCUGCUUGCCGGGCCGCCCUCGGAACAUCUGGCCCAGCAGGCCCAGACUGUAUCCAUCCAAGUUCCCGUUGUAUCCAGAGUUCUUAGUGGAAUUCUCGGGUGCCAA | 0.269
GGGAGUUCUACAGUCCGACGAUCUCCUAAGUCCCUGCCCCCUCCCCUUCACACCAUAACUAGGUAACAGUUUGAUAACUAGGGAAGAAAGCAGAACAGUUAAGCAGCCGCCACAUCCCCGCUGGCUGGGGGCCUGGAAUUCUCGGGUGCCAA | 0.299

Series 5 — technique: protein binding microarray; molecule type: double-stranded DNA, one strand shown; matrix: in vitro; concentration: not given; reference: not given; direction: higher = stronger binding
Target: Histone acetyltransferase KAT6A, winged helix 2, GST fusion (KAT6A, Homo sapiens, UniProt Q92794, residues 85-181)
Notes: 8-mer, flanks averaged, mean of 2 arrays, mostly near background
Residues (chain): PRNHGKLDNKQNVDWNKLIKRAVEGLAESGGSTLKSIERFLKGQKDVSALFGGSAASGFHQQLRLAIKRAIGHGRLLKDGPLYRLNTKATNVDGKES
Oligonucleotide | E-score
TCCCATCA | -0.16
ACCGGAGC | 0.144
AAAAACAG | -0.0347
GGGAACAA | 0.034
ACGCATAG | -0.107
ATTCGAGC | -0.0106
GACAAAAC | -0.000825
GAGTATAA | 0.0491
ATGTCCTC | -0.0524
TATTCGGA | 0.139
CATAAGAG | 0.0445
AACGTCAC | -0.105
ACAGCGTA | 0.0738
ATCATCGC | 0.0657
AGCCCGAA | 0.105
CGTTGTAG | 0.0972
AAGGGTAT | -0.103
CACGCCGA | 0.079
TAGTTACA | -0.0764
AAGTCCCC | -0.117
GTACGTAA | -0.355
CAGAGACC | -0.126

For quick reference, copied from above (series 5):
Oligonucleotide | E-score
GGGAACAA | 0.034
ACGCATAG | -0.107
ATTCGAGC | -0.0106
GACAAAAC | -0.000825
GAGTATAA | 0.0491
ATGTCCTC | -0.0524
TATTCGGA | 0.139
CATAAGAG | 0.0445
